# Assay results pooled from the literature.
# Each line is one published result; not all experiments were run side by side.
# Sequence of UniProt P49759 (whole entry, looked up): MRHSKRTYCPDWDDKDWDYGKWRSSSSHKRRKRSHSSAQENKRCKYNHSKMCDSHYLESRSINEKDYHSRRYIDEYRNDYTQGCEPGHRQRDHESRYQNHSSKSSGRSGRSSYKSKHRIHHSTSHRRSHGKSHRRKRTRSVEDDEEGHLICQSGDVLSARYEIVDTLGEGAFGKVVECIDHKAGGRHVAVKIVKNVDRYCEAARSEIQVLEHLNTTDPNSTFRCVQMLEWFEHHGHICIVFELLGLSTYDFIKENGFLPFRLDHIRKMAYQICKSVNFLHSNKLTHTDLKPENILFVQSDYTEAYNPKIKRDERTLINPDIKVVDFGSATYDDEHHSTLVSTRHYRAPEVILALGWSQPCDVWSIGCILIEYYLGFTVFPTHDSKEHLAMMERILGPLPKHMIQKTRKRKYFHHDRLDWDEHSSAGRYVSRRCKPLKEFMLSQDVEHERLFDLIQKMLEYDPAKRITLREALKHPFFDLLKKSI
# Sequence of UniProt O14920 (whole entry, looked up): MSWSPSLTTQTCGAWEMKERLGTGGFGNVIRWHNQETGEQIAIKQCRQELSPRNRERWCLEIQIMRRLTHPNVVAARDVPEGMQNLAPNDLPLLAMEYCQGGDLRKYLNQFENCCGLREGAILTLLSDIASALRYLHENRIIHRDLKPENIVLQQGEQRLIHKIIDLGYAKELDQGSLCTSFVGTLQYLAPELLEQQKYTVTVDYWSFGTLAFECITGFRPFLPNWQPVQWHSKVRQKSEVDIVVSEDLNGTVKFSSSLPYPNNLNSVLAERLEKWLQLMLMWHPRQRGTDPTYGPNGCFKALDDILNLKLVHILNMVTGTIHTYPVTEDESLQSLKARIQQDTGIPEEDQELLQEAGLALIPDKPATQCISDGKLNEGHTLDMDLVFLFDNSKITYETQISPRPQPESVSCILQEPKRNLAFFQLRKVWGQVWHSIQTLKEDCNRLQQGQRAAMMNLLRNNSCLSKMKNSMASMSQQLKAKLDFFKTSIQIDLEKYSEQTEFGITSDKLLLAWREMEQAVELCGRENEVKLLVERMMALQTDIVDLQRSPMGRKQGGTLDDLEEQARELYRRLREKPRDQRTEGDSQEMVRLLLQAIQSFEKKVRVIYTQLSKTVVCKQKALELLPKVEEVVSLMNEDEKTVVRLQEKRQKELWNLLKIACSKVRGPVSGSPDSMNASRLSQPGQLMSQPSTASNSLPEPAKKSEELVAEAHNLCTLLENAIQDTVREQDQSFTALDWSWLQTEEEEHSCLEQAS
# Sequence of UniProt P00520 (whole entry, looked up): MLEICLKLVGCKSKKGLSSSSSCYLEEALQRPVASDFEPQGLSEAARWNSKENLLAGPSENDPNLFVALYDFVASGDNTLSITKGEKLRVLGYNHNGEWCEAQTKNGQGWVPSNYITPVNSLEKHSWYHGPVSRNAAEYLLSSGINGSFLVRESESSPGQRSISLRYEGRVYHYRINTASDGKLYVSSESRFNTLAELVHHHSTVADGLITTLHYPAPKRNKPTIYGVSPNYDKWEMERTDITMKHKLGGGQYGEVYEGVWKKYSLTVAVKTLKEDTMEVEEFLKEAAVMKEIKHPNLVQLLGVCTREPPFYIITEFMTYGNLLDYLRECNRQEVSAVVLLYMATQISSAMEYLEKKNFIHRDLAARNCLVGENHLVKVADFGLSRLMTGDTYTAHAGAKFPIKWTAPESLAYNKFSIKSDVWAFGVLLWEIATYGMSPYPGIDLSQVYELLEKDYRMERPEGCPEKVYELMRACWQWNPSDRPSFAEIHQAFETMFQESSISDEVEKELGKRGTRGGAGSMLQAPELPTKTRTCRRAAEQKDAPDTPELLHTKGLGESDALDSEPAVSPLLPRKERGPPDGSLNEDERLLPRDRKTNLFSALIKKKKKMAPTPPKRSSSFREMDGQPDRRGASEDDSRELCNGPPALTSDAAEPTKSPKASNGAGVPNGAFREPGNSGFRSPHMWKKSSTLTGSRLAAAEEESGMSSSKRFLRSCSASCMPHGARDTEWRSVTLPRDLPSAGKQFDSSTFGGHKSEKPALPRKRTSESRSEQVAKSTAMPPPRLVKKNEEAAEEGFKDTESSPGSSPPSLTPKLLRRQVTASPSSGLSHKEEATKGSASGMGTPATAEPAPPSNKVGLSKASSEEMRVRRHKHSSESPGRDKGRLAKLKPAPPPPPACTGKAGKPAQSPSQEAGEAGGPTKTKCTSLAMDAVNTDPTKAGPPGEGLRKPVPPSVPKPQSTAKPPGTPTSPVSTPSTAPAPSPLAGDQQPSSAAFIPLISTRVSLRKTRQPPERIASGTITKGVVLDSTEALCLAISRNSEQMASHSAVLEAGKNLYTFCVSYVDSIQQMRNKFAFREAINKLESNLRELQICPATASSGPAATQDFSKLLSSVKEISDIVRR
Structure (SMILES),tested on,assay,test system,setting,quantity,result
CC(=NNC(=O)c1cccnc1)c1ccc(Nc2nnc(-c3ccc(Cl)cc3)c3ccccc23)cc1,MCF7,"cell growth or viability, MTT",,2.5 µM,cell death,85.2%
COc1cccc(C(=O)C#Cc2ccc(F)c(F)c2)c1,Pseudomonas aeruginosa,"microbial growth, absorbance",,"10 µM, 24 h",activity vs control,85%
CC(=NNC(=O)c1ccccc1O)c1ccc(Nc2nnc(-c3ccc(Cl)cc3)c3ccccc23)cc1,MCF7,"cell growth or viability, MTT",,"2.5 µM, 24 h",viability,61.6%
COc1cc(C#CC(=O)c2ccccc2)ccc1O,Pseudomonas aeruginosa,"microbial growth, absorbance",,"100 µM, 24 h",activity vs control,91%
CC(=O)Nc1ccc(Oc2nnc(-c3ccc(Cl)cc3)c3ccccc23)cc1,MCF7,"cell growth or viability, MTT",,0.156 µM,cell death,72.7%
COc1cc(-c2cncc3c2CN(C)Cc2cc(N4CCNCC4)ccc2-3)cc(OC)c1OC,"Abl1 (Mus musculus, UniProt P00520)","enzyme activity, inhibitor",,1 µM,remaining activity,79%
CCN(O)N=Nc1ccc(S(=O)(=O)Nc2onc(C)c2C)cc1,,ABTS scavenging,,180 µg/mL,inhibition,45.2%
Fc1ccc(/C=N/N=C/c2ccc(F)cc2)cc1,,DPPH scavenging,,,IC50,2150 µM
CCCN(O)N=Nc1ccc(S(=O)(=O)Nc2nccs2)cc1,,ABTS scavenging,,20 µg/mL,inhibition,23.7%
O=C(Nc1ccccc1)Nc1ccc(Oc2nnc(-c3ccc(Cl)cc3)c3ccccc23)cc1,MCF7,"cell growth or viability, MTT",,0.156 µM,cell death,57.1%
Cc1noc(NS(=O)(=O)c2ccc(N=NN(O)c3ccccc3)cc2)c1C,,ABTS scavenging,,20 µg/mL,inhibition,31.9%
C=CC(=O)N1CCC(COCC(=O)N2CCN(c3nc(-c4cnc(N)nc4C(F)F)nc(N4CCOC[C@@H]4C)n3)CC2)CC1,"IKBKB (Homo sapiens, UniProt O14920)","binding, competition with immobilised ligand",,1 µM,remaining binding,100%
Cc1cccc(N(O)N=Nc2ccc(S(=O)(=O)Nc3onc(C)c3C)cc2)c1,,ABTS scavenging,,120 µg/mL,inhibition,39.5%
CC(=NNC(=O)c1ccncc1)c1ccc(Nc2nnc(-c3ccc(Cl)cc3)c3ccccc23)cc1,MCF7,"cell growth or viability, MTT",,10 µM,cell death,91.2%
CN(Cc1ccc(C(C)(C)C)cc1)Cc1cccc2ccccc12,Trichophyton rubrum,"microbial growth, disc diffusion",ATCC28188,"0.00025 µg/mL, 6 days",inhibition zone,11.2 mm
CN(O)N=Nc1ccc(S(=O)(=O)Nc2nccs2)cc1,,ABTS scavenging,,120 µg/mL,inhibition,74.8%
O=[N+]([O-])c1cccc(/C=N/N=C/c2cccc([N+](=O)[O-])c2)c1,,DPPH scavenging,,,IC50,> 3000 µM
CCCN(O)N=Nc1ccc(S(=O)(=O)Nc2cc(C)on2)cc1,,ABTS scavenging,,20 µg/mL,inhibition,7.5%
O=C(Nc1ccc(Oc2nnc(-c3ccc(Cl)cc3)c3ccccc23)cc1)c1cccc([N+](=O)[O-])c1,MCF7,"cell growth or viability, MTT",,"0.312 µM, 24 h",viability,17%
CNc1ncc2c(/C=C/C(=O)N3CCC(OC)CC3)nn(Cc3cccc(C(F)(F)F)c3)c2n1,"CLK1 (Homo sapiens, UniProt P49759)","enzyme activity, inhibitor, radiometric",,1 µM,remaining activity,88%
Fc1ccc(/C=N/N=C/c2ccc(F)cc2F)c(F)c1,,DPPH scavenging,,,IC50,> 3000 µM
CN(Cc1ccc(C2(C(F)(F)F)CC2)cc1)Cc1cccc2ccccc12,Trichophyton rubrum,"microbial growth, disc diffusion",ATCC28188,"0.008 µg/mL, 6 days",inhibition zone,34 mm
